Measured values pooled from the literature.
Each line is one published result; not all experiments were run side by side. Several values in a cell are separate wells, animals, samples, runs or records. ± gives the spread as reported. No end group written: not given here.
B1: bicyclic; chain AATCHCRRSCYSTEYSYGTCTVMGINHRFCCL (also: bicyclic or more (positions not given here))
B2: disulfide; chain GLPVCGETCVGGTCNTPGCTCSWPVCTRN (disulfide (positions not given here))
Chain of UniProt Q64663 (whole entry, unmodified, looked up): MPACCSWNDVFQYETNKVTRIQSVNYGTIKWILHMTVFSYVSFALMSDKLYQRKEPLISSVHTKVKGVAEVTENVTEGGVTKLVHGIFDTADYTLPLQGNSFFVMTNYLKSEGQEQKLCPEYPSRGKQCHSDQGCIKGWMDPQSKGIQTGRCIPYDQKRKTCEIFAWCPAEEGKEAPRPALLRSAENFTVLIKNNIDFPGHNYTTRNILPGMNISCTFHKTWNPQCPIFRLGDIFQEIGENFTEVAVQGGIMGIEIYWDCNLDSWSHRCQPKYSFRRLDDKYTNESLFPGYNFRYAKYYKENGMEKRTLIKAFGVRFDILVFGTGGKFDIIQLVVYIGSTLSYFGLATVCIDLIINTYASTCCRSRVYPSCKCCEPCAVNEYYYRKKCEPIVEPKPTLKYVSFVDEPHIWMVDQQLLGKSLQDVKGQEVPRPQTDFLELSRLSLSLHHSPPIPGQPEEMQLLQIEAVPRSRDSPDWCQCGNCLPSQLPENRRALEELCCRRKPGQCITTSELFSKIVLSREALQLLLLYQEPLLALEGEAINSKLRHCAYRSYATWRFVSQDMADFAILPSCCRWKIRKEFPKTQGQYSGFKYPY

Substance | target or system | test | system | setting | how to read | measurement | result
KTKEGVVHGVATVA | – | far-UV circular dichroism | peptide, PBS | 10 µM, pH 7.4, 25 °C | – | secondary structure content | 30.1%
B1 | – | sedimentation velocity AUC | 10 mM sodium phosphate | 160 µM, pH 7.4, 20 °C | – | sedimentation coefficient S20,w | 0.847 S
Teicoplanin | – | – | QC solution | 6 months, -40 °C, high QC level | – | recovery | 102%
BzATP | P2X purinoceptor 7 (P2rx7, Rattus norvegicus, UniProt Q64663, I214A/R125A) | ion current, agonist, two-electrode voltage clamp | Xenopus laevis oocytes | 300 µM | reference: highest concentration response | normalized current | 0.92 and 0.869 and 0.93
B2 | – | RP-HPLC | NH4HCO3 without redox agents | pH 8.5, room temperature, oxidative folding | – | conversion to native product | not detected
Rilpivirine docusate | – | – | Peceol | mean of three | – | kinetic solubility | ~50 mg/mL
GSGAGKETRV | human SCRIB PDZ3-4 tandem (MBP fusion) | surface plasmon resonance | peptide | concentration not given | higher = stronger binding | normalised SPR binding response | 137 normalised RU
LVHYTHCGSLGV | Epstein-Barr virus | – | peptide, EBV-infected humanized B-NDG mice | 20 mg/kg, day 42 | – | body weight | 19.6 g and 19.7 g
GSGAGQITKV | human MAGI1-2/6 PDZ construct (MBP fusion) | surface plasmon resonance | peptide | concentration not given | higher = stronger binding | normalised SPR binding response | 0 normalised RU
ESLSLSLSLSLSLEGTVFTSWEEYLDWV | – | AFM | peptide, dried on mica from water | 0.1 wt% | – | nanofibre width | 9.6 ± 1.2 nm
TFFYGGSRGRRNNFRTEEY-OH (C-acid) | – | in situ brain perfusion | peptide, mouse, right brain hemisphere | 5 min | reference: input | brain uptake | 0.062 ± 0.004%
regorafenib N-β-glucuronide | – | – | mouse plasma | 750 ng/mL, 6 months, -80 °C | – | long-term stability accuracy | 90.9%
enterolactone sulfate | – | – | human, cerebrospinal fluid | dose not given, mean | – | CSF concentration | not detected
11-deoxycorticosterone | human CYP11B2 | substrate, stopped-flow kinetics | – | 4-state closed model, together with: adrenodoxin 40-fold excess | – | rate constant k-1 | 602 min⁻¹
Polymyxin B | – | untargeted LC-MS metabolomics, item: L-phenylalanine | Sprague-Dawley rat, right cerebral cortex | intracerebroventricular, 0.75 mg/kg, 1 h | reference: NaCl control | log2 fold change | -9.9
GPSPPTYPGDDAPVEDLIRFYDNLQQYLNVVTRHRY | – | CD thermal denaturation | peptide, sodium phosphate buffer with NaCl | 30 µM, pH 7.4 | – | melting temperature | 61.7 ± 0.6 °C
caspofungin | – | – | adult ICU patients, mITT, serum | dose not given, day 4 | – | magnesium | 0.7 mmol/L
FNA / CGLSGLGVA-NH2 ([18F]FNA-labelled, C-amide) | – | ex vivo gamma counting | peptide, healthy mouse, heart | 60 min post injection | – | tissue uptake | 0.26 %ID/g
benzalkonium chloride | – | – | mouse erythrocytes | 10 µM, 30 min, 37 °C | – | hemolysis | ~7%
coproporphyrin I | – | – | healthy human volunteers, spot urine | dose not given, pre-dose, median, together with: ezetimibe plus rifampin | – | urine concentration | 1.68 nM
coproporphyrin I | – | – | human, plasma | control day | – | mean daily plasma concentration | 0.798 ± 0.032 nM
colistin | Pseudomonas aeruginosa | broth microdilution | clinical isolate RKI-No_502/15 | – | – | MIC | 1 µg/mL
CTOP | – | RP-HPLC | HALO Peptide ES-C18 column | 25 µM, formic acid/methanol, 10 min gradient | – | retention time | 8.04 min
Peginesatide | UT7/EPO | tyrosine phosphorylation, LC-MS/MS phosphoproteomics, GluC, item: KLF5 tyrosine 95 | – | 10 nM, 15 min, together with: 10 U/mL EPO | reference: vehicle | phosphorylation level | 21.8 fold
